Measured values of several laboratories.
Numbered parts are unrelated; each lists some results of a single study.

Block 1
Target: RNA binding protein fox-1 homolog 2, RRM domain, GST-SBP tag (RBFOX2, Homo sapiens, UniProt O43251-10, residues 100-194)
Method: RNA Bind-n-Seq
Molecule type: RNA
Sample: in vitro
Concentration: 365 nM
Notes: natural RNA segment, single round, ends assumed
Reference: no-protein control
Reading: higher = stronger binding
Target sequence (chain): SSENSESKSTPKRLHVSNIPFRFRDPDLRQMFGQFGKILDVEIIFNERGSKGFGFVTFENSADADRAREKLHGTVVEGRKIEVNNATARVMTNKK
| Oligonucleotide | RBNS enrichment (R) |
| --- | --- |
| GGGAGUUCUACAGUCCGACGAUCUUGAAAAAUCGAAGAAGCUUGGGAAAAAGUCUGAUUGAGCACCCCCACUCGACGCCUUCCUCAACUGCAGCUGGCCACUAACACUGCUUCUGGGGACUUGGCUGCCAAGUUGGAAUUCUCGGGUGCCAA | 0.384 |
| GGGAGUUCUACAGUCCGACGAUCUGCCCAGGAUAGCUCUCUUCUAUAGCCAGGAUGUGGAGCUUAAGGAGACUCCAAUGUUUACUUUCUCCAGUCCUAGCUCUGCCAUAUAAACACUGUCUCAUGUUGUGCUUUGGAAUUCUCGGGUGCCAA | 0.39 |
| GGGAGUUCUACAGUCCGACGAUCGUGAUUUCACCUUCGCCUACUAUGAAAUGUCUCAUCAGACCUGACAUGUCUGAGAUAACCAAGGUGAUUCAGGAUUUGAUCAAAAGAAGUCUAGUAAGAAUUAAUUACACUGGAAUUCUCGGGUGCCAA | 0.239 |

Block 2
Target: Prothrombin, mature alpha-thrombin (F2, Homo sapiens, UniProt P00734)
Method: aptamer microarray, sandwich
Molecule type: DNA with 2'F-ANA
Sample: in vitro
Concentration: 200 nM
Notes: whole 15-mer aptamer, many near background
With: Cy3 exosite-II aptamer, 400 nM
Reading: higher = stronger binding
| Oligonucleotide | mean fluorescence intensity [a.u.] |
| --- | --- |
| GGTTGGTGTGGTTGG (2'F-ANA at 1 6 8 9 10 11 13 14 15) | 52.2 |
| GGTTGGTGTGGTTGG (2'F-ANA at 2 3 4 5 6 11 13) | 167 |
| GGTTGGTGTGGTTGG (2'F-ANA at 1 2 5 9 10) | 46.5 |

Other studies, line by line
| Molecule | target | assay | system | setting | scale | quantity | result |
| --- | --- | --- | --- | --- | --- | --- | --- |
| CAGGGUC | PABPC1L2, full length, GST fusion (mouse, UniProt A0ABA7IW68) | RNAcompete | RNA, in vitro | 20 nM, 7-mer, probes averaged, single round | reference: mean of 7-mers, higher = stronger binding | 7-mer Z-score | 0.109 |
| PhoQ, residues 284 288 289 292 302 303 SSCLAV | PhoP, residues 12 14 15 18 19 SGWQI (Escherichia coli, UniProt P23836) | Sort-seq, refers to: YFP reporter | E. coli | PhoQ-PhoP variant library, with: 10 µM Mg2+ | reference: high Mg2+ state, higher = stronger signaling | fold induction | 11.3 |

Repeated from above (other studies, line by line):
| Molecule | target | assay | system | setting | scale | quantity | result |
| --- | --- | --- | --- | --- | --- | --- | --- |
| PhoQ, residues 284 288 289 292 302 303 SSCLAV | PhoP, residues 12 14 15 18 19 SGWQI (Escherichia coli, UniProt P23836) | Sort-seq, refers to: YFP reporter | E. coli | PhoQ-PhoP variant library, with: 10 µM Mg2+ | reference: high Mg2+ state, higher = stronger signaling | fold induction | 11.3 |
